Assay results gathered from unrelated publications.
“And” joins repeats or separate records; there may be more than shown. ± gives the spread as reported.
NR4A1: Nuclear receptor subfamily 4 group A member 1 (NR4A1, Homo sapiens, UniProt P22736)
Chain of UniProt P22736 (whole entry, looked up): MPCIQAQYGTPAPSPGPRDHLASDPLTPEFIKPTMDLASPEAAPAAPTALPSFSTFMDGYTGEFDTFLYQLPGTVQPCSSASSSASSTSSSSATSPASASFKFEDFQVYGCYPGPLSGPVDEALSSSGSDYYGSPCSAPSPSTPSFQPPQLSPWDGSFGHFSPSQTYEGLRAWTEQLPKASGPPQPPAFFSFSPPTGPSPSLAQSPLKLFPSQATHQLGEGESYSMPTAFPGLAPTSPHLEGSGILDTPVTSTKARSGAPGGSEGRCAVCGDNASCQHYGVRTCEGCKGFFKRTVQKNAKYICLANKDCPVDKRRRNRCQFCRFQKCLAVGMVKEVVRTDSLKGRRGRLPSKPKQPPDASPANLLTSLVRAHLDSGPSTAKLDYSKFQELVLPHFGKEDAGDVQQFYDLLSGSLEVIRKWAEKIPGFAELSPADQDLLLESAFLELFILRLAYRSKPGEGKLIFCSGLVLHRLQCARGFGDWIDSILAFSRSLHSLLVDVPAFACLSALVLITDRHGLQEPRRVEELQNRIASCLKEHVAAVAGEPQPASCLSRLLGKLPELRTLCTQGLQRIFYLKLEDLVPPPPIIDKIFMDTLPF
Chain of UniProt O75762 (whole entry, looked up): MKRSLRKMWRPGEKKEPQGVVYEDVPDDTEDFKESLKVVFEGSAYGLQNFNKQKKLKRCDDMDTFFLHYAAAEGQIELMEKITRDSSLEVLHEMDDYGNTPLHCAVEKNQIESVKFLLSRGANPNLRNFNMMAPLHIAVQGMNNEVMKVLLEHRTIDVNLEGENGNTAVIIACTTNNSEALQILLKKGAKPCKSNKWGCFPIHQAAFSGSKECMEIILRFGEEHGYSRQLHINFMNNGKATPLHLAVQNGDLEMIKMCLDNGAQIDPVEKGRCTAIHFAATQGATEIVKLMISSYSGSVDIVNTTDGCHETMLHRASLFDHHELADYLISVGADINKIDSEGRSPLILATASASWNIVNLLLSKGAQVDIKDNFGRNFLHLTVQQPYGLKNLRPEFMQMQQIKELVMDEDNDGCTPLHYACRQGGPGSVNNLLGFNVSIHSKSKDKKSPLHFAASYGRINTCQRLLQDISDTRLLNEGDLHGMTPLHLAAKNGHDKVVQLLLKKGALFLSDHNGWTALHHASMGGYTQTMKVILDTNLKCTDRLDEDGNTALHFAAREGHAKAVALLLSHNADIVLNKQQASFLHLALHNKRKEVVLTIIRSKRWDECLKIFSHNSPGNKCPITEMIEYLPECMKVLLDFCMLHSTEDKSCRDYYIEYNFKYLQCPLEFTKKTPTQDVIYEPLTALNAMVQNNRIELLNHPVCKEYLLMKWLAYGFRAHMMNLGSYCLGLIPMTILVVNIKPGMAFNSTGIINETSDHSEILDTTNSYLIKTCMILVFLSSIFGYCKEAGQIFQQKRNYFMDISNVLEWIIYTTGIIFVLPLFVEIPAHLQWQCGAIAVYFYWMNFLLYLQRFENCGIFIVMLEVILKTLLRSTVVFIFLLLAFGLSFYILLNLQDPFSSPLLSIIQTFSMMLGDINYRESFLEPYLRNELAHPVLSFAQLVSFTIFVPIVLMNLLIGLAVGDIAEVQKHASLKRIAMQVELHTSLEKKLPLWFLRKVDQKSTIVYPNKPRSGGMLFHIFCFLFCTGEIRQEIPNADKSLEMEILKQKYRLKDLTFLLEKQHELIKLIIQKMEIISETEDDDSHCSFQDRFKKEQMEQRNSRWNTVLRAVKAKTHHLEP
Chain of UniProt Q16774 (whole entry, unmodified, looked up): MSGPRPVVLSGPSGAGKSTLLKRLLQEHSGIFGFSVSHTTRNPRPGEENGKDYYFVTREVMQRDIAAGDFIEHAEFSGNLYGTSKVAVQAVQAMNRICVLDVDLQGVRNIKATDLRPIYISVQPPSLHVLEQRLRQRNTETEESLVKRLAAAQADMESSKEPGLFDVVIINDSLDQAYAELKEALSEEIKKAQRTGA
Chain of UniProt Q96SW2 (whole entry, looked up): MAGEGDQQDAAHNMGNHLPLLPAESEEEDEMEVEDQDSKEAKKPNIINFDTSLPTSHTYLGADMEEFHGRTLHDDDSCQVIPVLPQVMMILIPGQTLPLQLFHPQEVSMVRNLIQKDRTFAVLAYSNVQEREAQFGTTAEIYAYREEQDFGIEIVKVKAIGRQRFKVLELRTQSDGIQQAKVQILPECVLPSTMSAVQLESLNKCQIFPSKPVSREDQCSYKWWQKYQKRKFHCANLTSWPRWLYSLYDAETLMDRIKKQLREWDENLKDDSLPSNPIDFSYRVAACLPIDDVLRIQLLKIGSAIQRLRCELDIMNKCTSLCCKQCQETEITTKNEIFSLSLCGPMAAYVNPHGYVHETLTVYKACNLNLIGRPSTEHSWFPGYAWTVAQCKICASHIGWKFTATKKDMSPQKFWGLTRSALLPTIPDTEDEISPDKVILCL
Chain of UniProt P29597 (whole entry, looked up): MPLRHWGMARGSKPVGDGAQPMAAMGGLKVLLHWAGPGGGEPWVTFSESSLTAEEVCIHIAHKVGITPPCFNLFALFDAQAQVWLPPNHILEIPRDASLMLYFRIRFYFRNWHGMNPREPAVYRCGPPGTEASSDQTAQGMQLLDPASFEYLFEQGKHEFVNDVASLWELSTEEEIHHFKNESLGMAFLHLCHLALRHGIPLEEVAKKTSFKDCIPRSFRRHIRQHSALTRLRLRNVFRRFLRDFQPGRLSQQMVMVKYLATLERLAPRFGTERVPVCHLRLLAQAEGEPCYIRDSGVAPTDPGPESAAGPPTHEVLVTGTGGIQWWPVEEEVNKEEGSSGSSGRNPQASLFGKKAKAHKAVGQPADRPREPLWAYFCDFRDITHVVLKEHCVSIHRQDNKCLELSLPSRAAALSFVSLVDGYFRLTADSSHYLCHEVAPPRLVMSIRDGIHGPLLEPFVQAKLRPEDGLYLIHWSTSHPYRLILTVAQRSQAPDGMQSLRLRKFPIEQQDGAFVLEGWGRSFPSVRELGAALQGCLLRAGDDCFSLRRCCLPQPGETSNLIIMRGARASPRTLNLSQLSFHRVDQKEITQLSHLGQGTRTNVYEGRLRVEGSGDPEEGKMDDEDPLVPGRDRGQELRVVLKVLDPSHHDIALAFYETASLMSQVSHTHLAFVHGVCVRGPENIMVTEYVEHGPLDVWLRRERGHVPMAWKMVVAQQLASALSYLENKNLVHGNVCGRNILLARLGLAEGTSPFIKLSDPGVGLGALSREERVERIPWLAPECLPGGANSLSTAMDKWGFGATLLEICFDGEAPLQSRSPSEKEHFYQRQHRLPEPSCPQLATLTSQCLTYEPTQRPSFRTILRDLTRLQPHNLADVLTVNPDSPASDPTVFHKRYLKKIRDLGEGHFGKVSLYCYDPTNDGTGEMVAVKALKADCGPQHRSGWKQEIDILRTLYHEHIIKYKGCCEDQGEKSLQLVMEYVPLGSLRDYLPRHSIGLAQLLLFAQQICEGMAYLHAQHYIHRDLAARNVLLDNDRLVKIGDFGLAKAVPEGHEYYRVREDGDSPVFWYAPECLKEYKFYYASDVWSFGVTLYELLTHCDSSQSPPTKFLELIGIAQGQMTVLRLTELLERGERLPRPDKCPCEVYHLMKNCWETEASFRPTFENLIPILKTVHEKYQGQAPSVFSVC
Chain of UniProt P51575 (whole entry, unmodified, looked up): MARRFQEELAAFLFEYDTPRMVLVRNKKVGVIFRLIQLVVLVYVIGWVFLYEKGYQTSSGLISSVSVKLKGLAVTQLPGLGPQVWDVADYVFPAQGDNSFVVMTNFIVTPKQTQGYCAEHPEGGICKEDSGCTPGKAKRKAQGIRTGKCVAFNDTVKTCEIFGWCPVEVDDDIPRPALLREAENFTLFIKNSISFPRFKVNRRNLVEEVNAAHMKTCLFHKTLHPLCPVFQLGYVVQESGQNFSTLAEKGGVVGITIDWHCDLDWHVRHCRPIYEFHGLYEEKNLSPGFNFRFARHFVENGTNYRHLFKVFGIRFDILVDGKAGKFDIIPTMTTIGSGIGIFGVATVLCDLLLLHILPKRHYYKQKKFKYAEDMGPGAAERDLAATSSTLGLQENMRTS
Chain of UniProt Q96NY8 (whole entry, looked up): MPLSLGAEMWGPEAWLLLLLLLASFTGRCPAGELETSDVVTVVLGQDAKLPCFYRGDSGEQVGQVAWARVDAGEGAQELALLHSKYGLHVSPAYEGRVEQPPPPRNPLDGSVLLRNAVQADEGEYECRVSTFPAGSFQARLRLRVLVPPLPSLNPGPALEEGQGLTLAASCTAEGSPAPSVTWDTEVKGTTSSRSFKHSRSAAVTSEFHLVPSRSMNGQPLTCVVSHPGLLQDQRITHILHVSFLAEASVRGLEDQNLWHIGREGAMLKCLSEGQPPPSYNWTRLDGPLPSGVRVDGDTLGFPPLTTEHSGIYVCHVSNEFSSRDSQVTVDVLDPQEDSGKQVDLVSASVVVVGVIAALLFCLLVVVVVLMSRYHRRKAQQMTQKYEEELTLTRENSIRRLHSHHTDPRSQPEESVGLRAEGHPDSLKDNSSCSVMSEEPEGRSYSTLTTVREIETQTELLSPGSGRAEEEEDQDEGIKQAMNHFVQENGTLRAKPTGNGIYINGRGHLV
Chain of UniProt Q9H773 (whole entry, looked up): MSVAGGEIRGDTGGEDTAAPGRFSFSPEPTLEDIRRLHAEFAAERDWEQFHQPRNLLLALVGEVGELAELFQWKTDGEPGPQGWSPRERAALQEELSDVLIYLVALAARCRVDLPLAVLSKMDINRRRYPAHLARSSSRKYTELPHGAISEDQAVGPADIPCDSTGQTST
Chain of UniProt Q92207 (whole entry, looked up): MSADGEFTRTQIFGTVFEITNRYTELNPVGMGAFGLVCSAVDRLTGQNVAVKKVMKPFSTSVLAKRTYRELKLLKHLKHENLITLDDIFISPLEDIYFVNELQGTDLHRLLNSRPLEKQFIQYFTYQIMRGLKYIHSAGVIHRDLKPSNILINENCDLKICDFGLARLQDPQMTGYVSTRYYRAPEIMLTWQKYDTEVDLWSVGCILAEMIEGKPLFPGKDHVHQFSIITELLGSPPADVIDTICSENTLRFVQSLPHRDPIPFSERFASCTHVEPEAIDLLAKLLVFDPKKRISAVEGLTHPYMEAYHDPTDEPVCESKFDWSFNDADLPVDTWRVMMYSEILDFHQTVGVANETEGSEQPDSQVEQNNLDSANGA

N#C[C@@]12C[C@@H]1[C@@H](n1cnc3c(N[C@H](C4CCC4)C4CC4)nc(I)nc31)[C@H](O)[C@@H]2O
selectivity ratio (HTR2B (Homo sapiens, UniProt P41595); antagonist, calcium flux; together with: 5-HT; reference: 5-HT2C over 5-HT2B): 4.1 fold

COc1cc(CNC(=O)CCCC/C=C/C(C)C)ccc1O
closed time constant (TRPV1 (Homo sapiens, UniProt Q8NER1); channel gating, single-channel inside-out patch; 100 nM, component 3 of four): 8 ms

CCCC[C@H]1C(=O)N(C)[C@@H](CCCC)C(=O)N[C@@H](CCCCNC(=O)CN2CCN(CC(=O)O)CCN(CC(=O)O)CC2)C(=O)N[C@H](C(=O)NCC(N)=O)CSCC(=O)N[C@@H](Cc2ccc(O)cc2)C(=O)N(C)[C@@H](C)C(=O)N[C@@H](CC(N)=O)C(=O)N2CCC[C@H]2C(=O)N[C@@H](Cc2c[nH]cn2)C(=O)N[C@@H](CCC(=O)O)C(=O)N2C[C@H](O)C[C@H]2C(=O)N[C@@H](Cc2c[nH]c3ccccc23)C(=O)N[C@@H](CO)C(=O)N[C@@H](Cc2cn(CC(=O)O)c3ccccc23)C(=O)N1C
uptake reduction (CD274 (Homo sapiens, UniProt Q9NZQ7); PD-L1-positive cells; concentration not given, together with: blocker 10 µM excess): > 90%

CCCC[C@@H]1NC(=O)[C@H](Cc2ccc(O)cc2)NC(=O)[C@@H]2CCCN2C(=O)[C@H](CC(=O)O)NC(=O)[C@H](C)NC(=O)[C@H](Cc2ccccc2)NC(=O)[C@@H]2CSCCC(=O)N3CN(CN(C3)C(=O)CCSC[C@@H](C(=O)N[C@@H](C)C(N)=O)NC1=O)C(=O)CCSC[C@H](NC(=O)[C@H](C)NC(C)=O)C(=O)N[C@@H]([C@@H](C)CC)C(=O)N[C@@H](CCC(=O)O)C(=O)N[C@@H](CCC(=O)O)C(=O)N[C@H](CCCCNC(=O)CCc1cn(CCOCCOCCOCCN(CCOCCOCCOCCC(=O)N[C@H]3CSCCC(=O)N4CN5CN(C4)C(=O)CCSC[C@H](NC(=O)[C@@H](CC(=O)O)NC(=O)[C@H](Cc4cccc6ccccc46)NC(=O)[C@@H]4CCCN4C3=O)C(=O)N[C@@H](CCSC)C(=O)N[C@@H](CCCCNC(=N)N)C(=O)N[C@@H](CC(=O)O)C(=O)N[C@@H](Cc3c[nH]c4ccccc34)C(=O)N[C@@H](CO)C(=O)N[C@@H]([C@@H](C)O)C(=O)N3CCC[C@H]3C(=O)N3C[C@H](O)C[C@H]3C(=O)N[C@@H](Cc3c[nH]c4ccccc34)C(=O)N[C@H](C(N)=O)CSCCC5=O)CCOCCOCCOCCn3cc(CCC(=O)NCCCC[C@H]4NC(=O)[C@H](CCC(=O)O)NC(=O)[C@H](CCC(=O)O)NC(=O)[C@H]([C@@H](C)CC)NC(=O)[C@@H](NC(=O)[C@H](C)NC(C)=O)CSCCC(=O)N5CN6CN(C5)C(=O)CCSC[C@H](NC(=O)[C@H](Cc5ccc(O)cc5)NC(=O)[C@H](CCC(N)=O)NC4=O)C(=O)N[C@@H](Cc4ccccc4)C(=O)N[C@@H](C)C(=O)N[C@@H](CC(=O)O)C(=O)N4CCC[C@H]4C(=O)N[C@@H](Cc4ccc(O)cc4)C(=O)N[C@@H](CCCC)C(=O)N[C@H](C(=O)N[C@@H](C)C(N)=O)CSCCC6=O)nn3)nn1)C(=O)N[C@@H](CCC(N)=O)C(=O)N[C@@H](Cc1ccc(O)cc1)C(=O)N2
Emax (Tumor necrosis factor receptor superfamily member 9/Nectin-4 (Homo sapiens, UniProt Q07011+Q96NY8); reporter gene, agonist; HT-1376 coculture with reporter cells; reference: background): 46 fold

C=CC(=O)N1CCC(COCC(=O)N2CCN(c3nc(-c4cnc(N)nc4C(F)F)nc(N4CCOC[C@@H]4C)n3)CC2)CC1
remaining binding (Non-receptor tyrosine-protein kinase TYK2, JH1 domain (TYK2, Homo sapiens, UniProt P29597); KINOMEscan; 1 µM; reference: DMSO control): 81%

CC1CCCN(C(=O)c2cc3ncccn3n2)C1 (stereo not shown)
log fold enrichment (ATP-dependent RNA helicase DDX1 (Homo sapiens, UniProt Q92499); binding, affinity selection mass spectrometry; reference: other proteins in batch): -0.168

CC(=O)N[C@H]1[C@@H](OC(C)C(N)C(=O)O)O[C@H](CO[C@]2(C(=O)O)C[C@H](O)[C@@H](NC(C)=O)[C@H]([C@H](O)[C@H](O)CO)O2)[C@H](O)[C@@H]1O (stereo partly shown)
-TΔS (CLEC10A, carbohydrate recognition domain (Homo sapiens, UniProt Q8IUN9); binding to carbohydrate recognition domain, isothermal titration calorimetry; 293 K): 6 ± 1 kcal/mol

Oc1ccccc1-c1n[nH]cc1-c1ccnc2ccccc12
log2 fold change (Mitogen-activated protein kinase HOG1 (HOG1, Candida albicans, UniProt Q92207); kinase binding, MIB/MS competition; Candida albicans lysate; 10 µM; reference: DMSO, negative = stronger binding): -0.04

Nc1ncnc2c1ncn2[C@@H]1O[C@H](COP(=O)(O)OP(=O)(O)OP(=O)(O)O)[C@@H](O)[C@H]1O
slow nucleotide addition rate constant (DNA-directed RNA polymerase subunit beta' / DNA-directed RNA polymerase subunit beta (rpoC/rpoB, Escherichia coli, UniProt P0A8T7+P0A8V2); transcription elongation, rapid chemical quench-flow; slow complex fraction, i+2→i+1, together with: NTP 200 µM): 2.8 ± 1 s⁻¹

N=C(N)NCCC[C@H](N)C(=O)O
binding enthalpy ΔH (uncharacterized protein (Pelagibacter ubique, UniProt Q4FLC2); isothermal titration calorimetry; Candidatus Pelagibacter ubique; concentration not given, displacement titration, together with: octopine competitor 250 µM): -4.46 kcal/mol and -4.47 kcal/mol

COc1cccc(OC[C@@H]2CN(CCN3CCc4ccccc43)CCO2)c1
inhibition (HTR5A (Homo sapiens, UniProt P47898); radioligand binding; concentration not given, together with: [3H]LSD): -9.8%

O=C(O)c1ccc(Nc2ncc3c(n2)-c2ccc(Cl)cc2C(c2c(F)cccc2F)=NC3)cc1
remaining activity (PRK2(h); kinase activity; 1 µM): 90%

Nc1nc2c(ncn2[C@@H]2O[C@H](COP(=O)(O)O)[C@@H](O)[C@H]2O)c(=O)[nH]1
reaction rate (GUK1 (Homo sapiens, UniProt Q16774, T83A); enzyme activity, NADH-coupled; 500 µM): 25.1 s⁻¹ and 20.4 s⁻¹ and 23.7 s⁻¹

Cc1cccc(/C=C/C(=O)Nc2cccc(-c3ccnc(N4CCC(CO)CC4)c3)c2)c1
binding response (NR4A1; SPR; 10.0 µM): 83.8 RU

S=c1[nH]nc(-c2ccccn2)o1
fluorescence increase (P2X purinoceptor 2 (P2RX2, Homo sapiens, UniProt Q9UBL9); calcium mobilization; MCF7 stably transfected; 100 µM, together with: ATP 100 µM): 77.2 ± 1.67%

O=S(=O)(O)O
reaction velocity (GUK1 (Homo sapiens, UniProt Q16774); enzyme activity, NADH-coupled; 1 mM, together with: ATP 4000 µM): 0.146 µM/s and 0.153 µM/s and 0.145 µM/s

O=c1nc(SCc2cc(F)cc(C(F)(F)F)c2)nc(SCc2csc3ccc(Cl)cc23)[nH]1
relaxed DNA (TOP2A (Homo sapiens, UniProt P11388); DNA relaxation; 1.95 µM, replicate 1): 92.1%

NCCCC(=O)O
normalised MST signal (SLC6A6 (Homo sapiens, UniProt P31641, G62A); binding, microscale thermophoresis; 1 mM, room temperature, together with: 50 nM labelled protein; higher = more binding): -0.0293

CC[C@H](C)C(=O)O[C@H]1C[C@H](O)C=C2C=C[C@H](C)[C@H](CC[C@@H](O)C[C@@H](O)CC(=O)O)[C@H]21
activation (NR4A1; reporter gene, NBRE reporter full-length; 10 µM; reference: vehicle): 1.06 fold

O=C1CCC(N2Cc3cc(CNC(=O)C(F)(F)c4ccc(Cl)cc4)ccc3C2=O)C(=O)N1 (stereo not shown)
ternary complex formation (GSPT1/CRBN, 300-496; with DDB1 (Homo sapiens, UniProt P15170+Q96SW2); degrader, AlphaLISA; 1 µM; reference: reference compound): 100%

[Ca]
potentiation (TRPA1 (Homo sapiens, UniProt O75762); ion current, two-electrode voltage clamp; Xenopus oocytes; 100 µM, -80 mV, together with: extracellular Ca2+; reference: current before Ca2+ addition): 27 fold change and 1.84 fold change and 6.7 fold change and 5.85 fold change and 11.3 fold change and 0.868 fold change

Cc1cc(Nc2cc(N3CCN(C)CC3)nc(Sc3ccc(NC(=O)C4CC4)cc3)n2)[nH]n1
remaining activity (PRKX (Homo sapiens, UniProt P51817); kinase activity, KinaseProfiler; 0.03 µM, species human; reference: control): 95%

COc1ccc(-c2nn3c(-c4ccco4)nnc3s2)cc1OC
binding inhibition (dCTP pyrophosphatase 1 (Homo sapiens, UniProt Q9H773); inhibitor, competition gel profiling; concentration not given): inhibited

Cc1ccc(C(=O)Nc2ccc3c(c2)CN(C2CCC(=O)NC2=O)C3=O)cc1 (stereo not shown)
degradation rate constant (Cereblon/Casein kinase I alpha (CSNK1A1/CRBN, Homo sapiens, UniProt P48729+Q96SW2); degrader, live-cell HiBiT kinetic; HEK293 LgBiT; 10 µM): 1.3 h⁻¹

CC(=O)N[C@H](C(=O)N1C[C@H](O)C[C@H]1C(=O)NCc1ccc(-c2scnc2C)cc1)C(C)(C)SCCCCCCNC(=O)C[C@@H]1N=C(c2ccc(Cl)cc2)c2c(sc(C)c2C)-n2c(C)nnc21
−TΔS (Bromodomain-containing protein 2, BD1 (BRD2, Homo sapiens, UniProt P25440); binding, ITC; 25 °C, compound in cell, protein in syringe): 6.7 ± 0.7 kcal/mol

Cl.[2H]C([2H])([2H])CC(=O)c1cnc(NC(=O)C2CC2)cc1Nc1cccc(-c2ncn(C([2H])([2H])[2H])n2)c1OC
time to maximal inhibition (TYK2 (Homo sapiens, UniProt P29597); IFNα-induced STAT1 phosphorylation, flow cytometry; human, whole blood T cells; above 10 mg once daily, together with: IFN-alpha): 2 to 4 h

CCN1CCN(c2cc(N3CCN(CC)CC3)nc(NCCNc3ccnc4cc(Cl)ccc34)n2)CC1
activation (NR4A1; reporter gene, NBRE reporter full-length; 20 µM; reference: vehicle): 1.43 fold

Nc1ncnc2c1ncn2[C@@H]1O[C@H](COP(=O)(O)CP(=O)(O)OP(=O)(O)O)[C@@H](O)[C@H]1O
calcium influx (P2X purinoceptor 1 (P2RX1, Homo sapiens, UniProt P51575, E282A); calcium influx; 316 nM; reference: ionomycin response): 97.3% and 100%

A few entries again:
Nc1ncnc2c1ncn2[C@@H]1O[C@H](COP(=O)(O)CP(=O)(O)OP(=O)(O)O)[C@@H](O)[C@H]1O
calcium influx (P2X purinoceptor 1 (P2RX1, Homo sapiens, UniProt P51575, E282A); calcium influx; 316 nM; reference: ionomycin response): 97.3% and 100%

[Ca]
potentiation (TRPA1 (Homo sapiens, UniProt O75762); ion current, two-electrode voltage clamp; Xenopus oocytes; 100 µM, -80 mV, together with: extracellular Ca2+; reference: current before Ca2+ addition): 27 fold change and 1.84 fold change and 6.7 fold change and 5.85 fold change and 11.3 fold change and 0.868 fold change
